# Measurements from different studies.
# Each line is one published result; not all experiments were run side by side. Values joined by “and” are separate records of one study, mostly repeats; a detail may differ. Numbers after ± are the reported error.
SMILES,assay,test system,setting,Cmax
C[C@]12C=CC(=O)C=C1CC[C@@H]1[C@@H]2[C@@H](O)C[C@@]2(C)[C@H]1C[C@H]1O[C@@H](C3CCCCC3)O[C@]12C(=O)CO,,"children with asthma, serum","inhaled, 160 µg ciclesonide, day 7, geometric LS mean, per-protocol, no spacer",0.000123 µg/mL
O=C(c1cccnc1-c1ccncc1)N1CCC(O)(Cc2ccccc2)CC1,,"healthy subjects, plasma","oral, 300 mg twice daily, day 1",1.33 µg/mL
Cc1cc(Nc2cc3ncccc3c(N[C@@H]3C[C@H]4CC[C@@H](C3)N4CCC#N)n2)n[nH]1,,"pregnant rabbit, maternal plasma","oral, 30 mg/kg/day, gestation day 7",0.0403 µg/mL
Cc1ccc(Sc2ccccc2N2CCNCC2)c(C)c1,,"healthy women, plasma","oral, 10 mg once daily, fed, day 12",0.0138 µg/mL
CC(C(=O)O)c1ccc(-c2ccccc2)c(F)c1 (centres unmarked),HPLC,"rabbit, plasma","oral, 2.58 mg/kg, single dose",37.3 ± 0.73 µg/mL
O=C(CCCCCCC(=O)Nc1ccccc1)NO,,"patients, serum","oral, 600 mg, cycle 1 day 2, together with: flavopiridol 30+30 mg/m2",4.87 µM
CCOc1ccc(Cc2cc([C@@H]3S[C@H](CO)[C@@H](O)[C@H](O)[C@H]3O)c(OC)cc2C)cc1,,"Japanese type 2 diabetes patients, plasma","oral, 5 mg single dose, eGFR ≥90 mL/min/1.73 m^2",0.272 ± 0.0864 µg/mL
CON(C)C(=O)N1N=C(c2cc(F)ccc2F)S[C@@]1(CCCN)c1ccccc1,,"patients, plasma","intravenous, dose not given, single doses, range of cohorts",0.0311 to 0.132 µg/mL
CN[C@H](CC(C)C)C(=O)N[C@H]1C(=O)N[C@@H](CC(N)=O)C(=O)N[C@H]2C(=O)N[C@H]3C(=O)N[C@H](C(=O)N[C@H](C(=O)O)c4cc(O)cc(O)c4-c4cc3ccc4O)[C@H](O)c3ccc(c(Cl)c3)Oc3cc2cc(c3O[C@@H]2O[C@H](CO)[C@@H](O)[C@H](O)[C@H]2O[C@H]2C[C@](C)(N)[C@H](O)[C@H](C)O2)Oc2ccc(cc2Cl)[C@H]1O,microdialysis,"pig (Danish Landrace), cortical bone","iv infusion, 1000 mg over 100 min, together with: meropenem co-administered",7 µg/mL
CS(=O)(=O)n1cc2c(n1)CN([C@H]1CO[C@H](c3cc(F)ccc3F)[C@@H](N)C1)C2,,"healthy Japanese men, plasma","oral, 1 mg once weekly, day 1",0.0157 µM
N[C@@H](Cc1ccc(O)c(O)c1)C(=O)O,,"rhesus and cynomolgus macaque, plasma","subcutaneous, dose not given, together with: PDE9 inhibitor 5 mg/kg",0.0849 µg/mL and 0.0933 µg/mL
CC(=O)c1nn(CC(=O)N2C[C@H](F)C[C@H]2C(=O)Nc2cccc(Br)n2)c2ccc(-c3cnc(C)nc3)cc12,,"Dutch Belted rabbit, plasma","oral, 15 mg/kg single dose",0.318 µg/mL
Cc1nc(-c2ccc(OCC(C)C)c(C#N)c2)sc1C(=O)O,,"healthy men, plasma","oral, 40 mg once daily, day 14, geometric mean, together with: verinurad 10 mg",0.619 µg/mL
Cc1ccc(NC(=O)c2ccc(CN3CCN(C)CC3)cc2)cc1Nc1nccc(-c2cncc(-c3oncc3C)c2)n1,,"Parkinson's disease patients, plasma","oral, 50.0 mg once daily, day 1, 7-day dosing, mean",1.72 µg/mL
CC[C@H](C)CCCCC(=O)N[C@@H](CCN)C(=O)N[C@H](C(=O)N[C@@H](CCN)C(=O)N[C@H]1CCNC(=O)[C@H]([C@@H](C)O)NC(=O)[C@H](CCN)NC(=O)[C@H](CCN)NC(=O)[C@H](CC(C)C)NC(=O)[C@@H](Cc2ccccc2)NC(=O)[C@H](CCN)NC1=O)[C@@H](C)O,UPLC-MS/MS,"intensive care patients AKI, plasma","iv, dose not given, end of infusion, steady state, polymyxin B dosing",6.9 ± 1.9 µg/mL
O=C(c1cc(Cc2n[nH]c(=O)c3ccccc23)ccc1F)N1CCN(C(=O)C2CC2)CC1,,cancer patients,"oral, 400 mg twice daily, day 1",5.1 ± 1.7 µg/mL
C[C@H]1CN(C(=O)CC#N)[C@]12CCN(c1ncnc3[nH]ccc13)C2,,"atopic dermatitis patients, plasma","topical, 5 g of 3% ointment twice daily, day 7",0.00289 ± 0.00139 µg/mL
